Measurements collected from several papers.
Every numbered part comes from another study and shows a few of its results, in no order. Positions count from the first letter of the parent shown.

Series 1
Target: Sal-like protein 4, full length isoform A (SALL4, Homo sapiens, UniProt Q9UJQ4, residues 1-1053)
UniProt Q9UJQ4, sequence (whole entry, looked up): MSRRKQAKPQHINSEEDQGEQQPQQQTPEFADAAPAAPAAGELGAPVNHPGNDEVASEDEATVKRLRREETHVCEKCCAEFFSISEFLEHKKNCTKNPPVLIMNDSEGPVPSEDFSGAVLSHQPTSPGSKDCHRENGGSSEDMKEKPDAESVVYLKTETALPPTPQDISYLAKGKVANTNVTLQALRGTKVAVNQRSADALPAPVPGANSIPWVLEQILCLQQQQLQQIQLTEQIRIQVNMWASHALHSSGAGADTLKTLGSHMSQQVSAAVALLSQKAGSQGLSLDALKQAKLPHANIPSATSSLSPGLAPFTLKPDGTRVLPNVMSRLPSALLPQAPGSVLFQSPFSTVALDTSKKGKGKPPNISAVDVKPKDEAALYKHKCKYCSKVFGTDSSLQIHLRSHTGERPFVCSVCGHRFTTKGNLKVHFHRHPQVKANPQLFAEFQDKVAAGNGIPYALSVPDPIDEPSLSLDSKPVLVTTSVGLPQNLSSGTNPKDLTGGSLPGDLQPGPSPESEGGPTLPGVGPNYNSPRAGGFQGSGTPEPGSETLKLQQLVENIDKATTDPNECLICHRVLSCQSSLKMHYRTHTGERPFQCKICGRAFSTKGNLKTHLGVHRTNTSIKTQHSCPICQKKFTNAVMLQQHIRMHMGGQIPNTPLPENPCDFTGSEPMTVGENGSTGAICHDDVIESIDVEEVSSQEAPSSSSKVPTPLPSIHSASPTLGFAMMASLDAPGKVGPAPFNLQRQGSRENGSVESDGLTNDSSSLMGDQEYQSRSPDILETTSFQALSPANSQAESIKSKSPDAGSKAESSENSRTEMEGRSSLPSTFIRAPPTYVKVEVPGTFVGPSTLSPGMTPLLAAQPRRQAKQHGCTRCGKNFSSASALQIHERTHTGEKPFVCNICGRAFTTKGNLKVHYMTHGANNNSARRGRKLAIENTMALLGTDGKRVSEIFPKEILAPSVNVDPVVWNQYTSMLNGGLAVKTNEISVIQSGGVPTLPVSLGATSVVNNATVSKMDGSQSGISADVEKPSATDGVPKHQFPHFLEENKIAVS
Technique: universal PBM
Form: double-stranded DNA, one strand shown
Medium: in vitro
Tested at: 600 nM
Setting: 8-mer, flanks averaged, mean of replicates
Reading: higher = stronger binding
`ATTAAGAA` has an E-score of 0.238.
For `GCGGAAAA`, the E-score was 0.156.
The E-score of `ATCGAGCA` is reported as -0.0699.
With `GCGGGATA` the E-score was -0.135.
With `ATAACGGC` the E-score was 0.169.
The E-score of `AGTACCCG` is reported as -0.158.
`AAACGAAG` has an E-score of 0.0906.
`AGTACACA` gave an E-score of 0.0958.
With `GCGATTAA` the E-score was 0.175.
The E-score of `AGCGACAA` is reported as -0.0536.
`CATCCTGA` has an E-score of -0.00256.
`CATTCCGA` has an E-score of 0.0917.
With `CAGGCGCA` the E-score was -0.237.
For `ATCTCAGG`, the E-score was -0.0934.
For `AGGACATC`, the E-score was -0.128.
`GGTTAACA` has an E-score of 0.233.
For `CCCCGGCC`, the E-score was -0.366.
With `CTATTCAA` the E-score was 0.237.
The E-score of `TTCAAAAA` is reported as 0.268.
For `CCATAAGC`, the E-score was 0.117.
The E-score of `CCCAGAAA` is reported as -0.052.
For `GGGTAGAA`, the E-score was -0.0915.
For `ATGATCAC`, the E-score was 0.156.

Series 2
Target: ABI1, truncated, D143A, DHFR fusion (Arabidopsis thaliana)
Technique: DHFR PCA, deep sequencing
Medium: yeast
Setting: methotrexate growth selection, single substitutions
Added: (+)-ABA 58 µM
Baseline: wild-type fitted maximum
Reading: higher = stronger binding
Starting sequence: PYL1, truncated, DHFR fusion (Arabidopsis thaliana); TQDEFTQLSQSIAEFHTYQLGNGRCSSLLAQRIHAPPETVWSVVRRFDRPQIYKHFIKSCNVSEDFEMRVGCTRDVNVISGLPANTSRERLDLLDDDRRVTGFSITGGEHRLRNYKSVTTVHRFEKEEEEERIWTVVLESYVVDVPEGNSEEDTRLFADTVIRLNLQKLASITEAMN
For `T173E`, “relative binding score” read -0.836%.
`D97M` — result for “relative binding score”: 86.6%.
`V136F`: “relative binding score” 82.9%.
`Q167V` — result for “relative binding score”: 73.8%.
`R98F` — result for “relative binding score”: 43%.
`E152I`: “relative binding score” 72.9%.
`L29V`: “relative binding score” 90.4%.
For `D96H`, “relative binding score” read 44.1%.
`R88Y` — result for “relative binding score”: 78%.
`D153A`: “relative binding score” 30.9%.

Series 3
Target: RNA binding protein fox-1 homolog 2, RRM domain, GST-SBP tag (RBFOX2, Homo sapiens, UniProt O43251-10, residues 100-194)
Technique: RNA Bind-n-Seq
Form: RNA
Medium: in vitro
Tested at: 365 nM
Setting: natural RNA segment, single round, ends assumed
Baseline: no-protein control
Reading: higher = stronger binding
Construct (chain): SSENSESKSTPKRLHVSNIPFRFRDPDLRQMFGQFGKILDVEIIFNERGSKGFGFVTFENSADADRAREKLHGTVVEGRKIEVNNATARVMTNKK
Under “RBNS enrichment (R)”, `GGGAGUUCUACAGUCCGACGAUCGGGAGCUCUGAAGAAGGAGCUCUGAAGGAAAGGAACAUUGUAUCUGGACAGCAAGCAAGCCAUUUCCCCCCAUGUUCUCUUUCCUUCCUCCUACCCAUACUUCCUUCUCUUGGAAUUCUCGGGUGCCAA` is recorded as 0.319.
`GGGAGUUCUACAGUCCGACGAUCUUCCCUCUUUUUAAACUACAUUGUGUUAGAGUCAUAGUCUAGGAUCCUGAGAGAUUUUCCAUUCUUGUCACCAUUCACUUGCAUUGUAAAGAUUUUCUUUGUCUGUUGUUUGGAAUUCUCGGGUGCCAA`: “RBNS enrichment (R)” 0.615.
`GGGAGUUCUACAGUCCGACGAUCUCAUCUUCACCUGAUAAAGAUGGUUGCUGGUUUGGAAUCUACACCUGCACACUUUUACUUCUUCCGUCCUUCCUGUCUUUCAAAAUAAAAUCUUAUUUUGGCAAAGGCAAUGGAAUUCUCGGGUGCCAA`: “RBNS enrichment (R)” 0.351.
For `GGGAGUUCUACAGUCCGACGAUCCUUGCUUGAAAUCUUGCUGAAAUGUUCUCAUUUCCUGUUUGCUGUAUGGGCUCGGGUGGGAUGUUUGUUGGCUCUGUUGUGUUUAUUCACCAAUUUGUACAUUAUUUGUUUGGAAUUCUCGGGUGCCAA`, “RBNS enrichment (R)” read 5.71.
`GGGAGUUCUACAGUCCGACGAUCCACCGCACUAUUCUUGCCAUAGAGAGAGCCCAGGAGCCAACGCUGAAUCAGGUGCCCGGAGUCUUUGGAGCUCUGAAACUCUCGGCUAUGCAAGACCCCGGGUCCUUGCAUGGAAUUCUCGGGUGCCAA`: “RBNS enrichment (R)” 2.08.
`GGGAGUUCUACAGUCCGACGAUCUCUGCCUUAGGCUGCUGGGAGAUGCCAUUCUCCAGUUUCAGAAGCAGGCAGGGCAAAGGUCAAGACUGUGGUAUUGGGGUCUUUUGGCUCUGAAGGAUCCUGGAACCACUUGGAAUUCUCGGGUGCCAA` — result for “RBNS enrichment (R)”: 0.283.
`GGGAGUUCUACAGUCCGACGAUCUCAGAGGGGUGUAGGUUGCGAUCCUUGUCGCCUGAGGAGCCGGUGGACUGCUGAGCUAGUCCAGGGGUAGCCGGUCCCCUCAUGCAUCUGCUGCCUUAGCUUCUAGAACGUGGAAUUCUCGGGUGCCAA` — result for “RBNS enrichment (R)”: 0.352.
`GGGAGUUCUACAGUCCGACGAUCUUAAACUAAAGAUCACGUCUCUGUUUUUAAAUUAUGCUAACACCACCACAGAUUAUGUUGACGUAUUUUCUUCUGUAUUUUCUUGGUGGGACUUGAGAUUUGAGGAAAAAUGGAAUUCUCGGGUGCCAA` — result for “RBNS enrichment (R)”: 0.311.
Under “RBNS enrichment (R)”, `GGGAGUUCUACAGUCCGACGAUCGCAACUGGUACUCGCUUCUUGGCUGCUGCUUCUGUUGUGAAAAGACGAGCCCAUGUUUCUGCAUGGAUUUCCCAUGGAAGUCCUGUCCUGCUACAGAGGGGAAGAAAGUGUGGAAUUCUCGGGUGCCAA` is recorded as 0.311.
`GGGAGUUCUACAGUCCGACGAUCAAAGCAACAUGGAAAUAACCAUAGACAAAACUUAUUUGGGUAACUAGAAACCAAUGAGCUUUAGAUUCAUUCCUGGGUUUUUGCUUAAAAAAAAGUGAACUAAUAUAGCAUGGAAUUCUCGGGUGCCAA`: “RBNS enrichment (R)” 2.6.
`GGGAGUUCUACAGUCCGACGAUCUACUUUUUAAGCUGUUGUUAUGCAAAUCUUGAAGAAGUUACUGGCAUGGUUGUUGCAUAUAGUAAAACUGAGAGUAAUUCACCUGUGAAUCUGCAUAUUAAUUACCUGAUUGGAAUUCUCGGGUGCCAA`: “RBNS enrichment (R)” 3.23.
`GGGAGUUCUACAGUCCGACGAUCUUGAAUAAUGUCUUCUCUUUAAUAUUCACAUAAGGCAGCCUAUUAACUGUGUCUUAGCAAUGUUGUAUAUAGUUCUUUUAAUAUUCAUAAGGUAUAUUUUUGAAUUUUGGUGGAAUUCUCGGGUGCCAA`: “RBNS enrichment (R)” 1.04.

Series 4
Target: UBE2T UBC core domain (UniProt Q9NPD8)
Technique: yeast two-hybrid
Medium: yeast
Setting: mostly zero background
Baseline: not given
Reading: higher = stronger interaction
B1: ZMIZ2 RING domain (UniProt Q8NF64); chain GTIPGTPGPNGEDGVEQTAIKVSLKCPITFRRIQLPARGHDCRHIQCFDLESYLQLNCERGTWRCPVCNKTALLEGLEVDQYMLGILIYIQNSDYEEITIDPTCSWK
B2: MDM4 RING domain (UniProt O15151); chain MEDCQNLLKPCSLCEKRPRDGNIIHGRTGHLVTCFHCARRLKKAGASCPICKKEIQLVIKVF
B3: SYTL4 RING domain (UniProt Q96C24); chain RGSQHYSDRTCARCQESLGRLSPKTNTCRGCNHLVCRDCRIQESNGTWRCKVCAKEIELKKAT
B4: RBCK1 RING domain (UniProt Q9BYM8); chain SLVLNTEPAECPVCYSVLAPGEAVVLRECLHTFCRECLQGTIRNSQEAEVSCPFIDNTYSCSGKLLEREIK
B5: UBOX5 RING domain (UniProt O94941); chain EQPGSILGPECASCKRVFSPYFKKEPVYQLPCGHLLCRPCLGEKQRSLPMTCTACQRPVASQDVLR
Construct (chain): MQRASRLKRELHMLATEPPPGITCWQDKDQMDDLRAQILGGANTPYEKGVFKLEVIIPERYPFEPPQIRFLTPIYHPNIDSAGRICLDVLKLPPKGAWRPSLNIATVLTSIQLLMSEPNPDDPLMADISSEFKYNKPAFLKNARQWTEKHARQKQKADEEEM
Under “lacZ reporter activity”, `B1 (ZMIZ2 RING domain)` is recorded as 0.
`B2 (MDM4 RING domain)`: “lacZ reporter activity” 0.
Under “lacZ reporter activity”, `B3 (SYTL4 RING domain)` is recorded as 0.
`GSRLQEINDVCAICYHEFTTSARITPCNHYFHALCLRKWLYIQDTCPMCHQKVYIEDDIK (RNF139 RING domain (UniProt Q8WU17))` — result for “lacZ reporter activity”: 0.
For `YQNEVDDDLVCHICLQPLLQPLDTPCGHTFCYKCLRNFLQEKDFCPLDRKRLHFKLCKK (LNX2 RING domain (UniProt Q8N448))`, “lacZ reporter activity” read 0.
For `KLRKLKEAMLCMVCCEEEINSTFCPCGHTVCCESCAAQLQSCPVCRSRVEHVQHVY (MYLIP RING domain (UniProt Q8WY64))`, “lacZ reporter activity” read 0.
`GSDDEEIPFKCFICRQSFQNPVVTKCRHYFCESCALQHFRTTPRCYVCDQQTNGVFNPA (RNF113A RING domain (UniProt O15541))` — result for “lacZ reporter activity”: 0.
Under “lacZ reporter activity”, `NLSELTPYILCSICKGYLIDATTITECLHTFCKSCIVRHFYYSNRCPKCNIVVHQTQPLY (PCGF6 RING domain (UniProt Q9BYE7))` is recorded as 0.
Under “lacZ reporter activity”, `B4 (RBCK1 RING domain)` is recorded as 0.
`KETIKKTTKPCPRCHVPVEKNGGCMHMKCPQPQCRLEWCWNCGCEWNRVCMG (PRKN RING domain (UniProt O60260))` — result for “lacZ reporter activity”: 0.
`B5 (UBOX5 RING domain)` — result for “lacZ reporter activity”: 0.

Series 5
Target: CCND1, cyclin fold, Cln2 fusion (human)
Technique: yeast growth competition, sequencing
Medium: yeast
Setting: weak parent motif
Baseline: not given
Reading: higher = stronger binding
Starting sequence: ORC1 docking peptide (human); PRARKRLELGNLG; partner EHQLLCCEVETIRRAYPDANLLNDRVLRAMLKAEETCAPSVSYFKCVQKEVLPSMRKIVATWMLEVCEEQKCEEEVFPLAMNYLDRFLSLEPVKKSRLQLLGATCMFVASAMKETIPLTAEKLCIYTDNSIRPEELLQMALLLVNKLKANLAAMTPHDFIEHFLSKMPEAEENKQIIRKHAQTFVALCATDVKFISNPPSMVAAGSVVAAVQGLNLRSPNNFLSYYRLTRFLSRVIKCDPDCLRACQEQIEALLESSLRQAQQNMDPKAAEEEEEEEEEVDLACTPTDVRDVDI
`E8R`: “normalised enrichment score” -1.08.
Under “normalised enrichment score”, `E8Q` is recorded as -0.0669.
`P1E`: “normalised enrichment score” 0.368.
Under “normalised enrichment score”, `R2E` is recorded as 0.653.
For `L9E`, “normalised enrichment score” read -0.233.
`R2Q`: “normalised enrichment score” -0.105.
Under “normalised enrichment score”, `L9R` is recorded as 0.0419.
Under “normalised enrichment score”, `N11M` is recorded as 0.587.
`R2A`: “normalised enrichment score” -0.157.
`R2T` — result for “normalised enrichment score”: 0.417.
`R4N` — result for “normalised enrichment score”: 0.0543.
`R6P` — result for “normalised enrichment score”: 0.0806.
`P1R` — result for “normalised enrichment score”: -0.036.
`R6E`: “normalised enrichment score” 0.0823.
Under “normalised enrichment score”, `K5Q` is recorded as -0.248.
`N11V` — result for “normalised enrichment score”: 0.27.
`G13Q` — result for “normalised enrichment score”: -0.516.
`R4V`: “normalised enrichment score” 0.068.
`G10Q` — result for “normalised enrichment score”: -0.463.
Under “normalised enrichment score”, `R2P` is recorded as -0.239.
`P1N`: “normalised enrichment score” 0.408.
`L7I`: “normalised enrichment score” 0.14.
For `L12P`, “normalised enrichment score” read 0.204.
`K5C`: “normalised enrichment score” -0.22.
`E8P` — result for “normalised enrichment score”: 0.185.

Some of these lines once more (series 5):
Under “normalised enrichment score”, `E8Q` is recorded as -0.0669.
Under “normalised enrichment score”, `N11M` is recorded as 0.587.
`R4V`: “normalised enrichment score” 0.068.
`G13Q` — result for “normalised enrichment score”: -0.516.
For `L9E`, “normalised enrichment score” read -0.233.
